Experimental data collected from several papers.

Cc1cc(-c2nnc(N)nc2-c2ccc(F)cc2)cc(Cl)n1
Tmax (human patients, plasma; oral, 75 mg capsule once daily, multiple doses, median): 4 h

Cc1cn(C(=O)c2c(-c3c(Cl)cc(Cl)cc3Cl)noc2C(C)(C)F)c2cccc(/C=C/C(=O)O)c12
Tmax (human patients; 500 mg bid, cycle 1 day 1): 3.97 h

Cc1cc(-c2nccc3c2ccn3CC(=O)Nc2ccc(-c3cnccn3)cn2)ccn1
Tmax (human, plasma; oral, 5 mg once daily, day 16, median): 1.25 h

Cc1ncnc2c1ccn2[C@@H]1C[C@H](Oc2cc(C(F)F)c(F)c3c2CNCC3)[C@@H](O)[C@H]1O
Tmax (human; 4 mg twice daily, multiple dose, median): 0.5 h

Cc1noc(C)c1-c1cc(C(O)(c2ccccn2)c2ccccn2)c2nc(C3CC3)[nH]c2c1
Tmax (human patients, fasted, plasma; oral, 6 mg once daily, cycle 1 day 8): 1.42 h

COc1nnc2ccc(N3CCC(c4ccc(OCCN5CCN(C)C(=O)[C@H]5C)cc4)CC3)nn12
Tmax (human, plasma; oral, 30 mg once daily, multiple dose, monotherapy): 1 h

COc1ncc(-c2nc3c(n2C(C)C)[C@H](c2ccc(Cl)cc2)N(c2cc(Cl)cn(C)c2=O)C3=O)c(OC)n1
Tmax (LC-MS/MS, noncompartmental; human, plasma; oral, 150 mg, C1D1, high-dose, median): 2 h

Cn1ncnc1[C@H]1c2n[nH]c(=O)c3cc(F)cc(c23)N[C@@H]1c1ccc(F)cc1
Tmax (human patients, plasma; oral, 400 µg/m2 twice daily day 1, day 5, dose level DL2, median, with: temozolomide 20 mg/m2 daily days 2-6): 2 h

Some of these lines once more:
Cc1cn(C(=O)c2c(-c3c(Cl)cc(Cl)cc3Cl)noc2C(C)(C)F)c2cccc(/C=C/C(=O)O)c12
Tmax (human patients; 500 mg bid, cycle 1 day 1): 3.97 h
